Measurements pooled from the literature.
Every numbered part comes from another study and shows a few of its results, in no order. Several values in a cell are separate wells, animals, samples, runs or records.

Series 1
SMILES: C[C@@H]1CN(c2ccc(-c3cc(C(=O)NCCOCCOCCOCCOCCNC(=O)/C=C/c4[nH]cc(C(=O)N[C@@H](CC(N)=O)c5ccc(F)c(Cl)c5)c4-c4ccc(Cl)cc4F)ccc3F)cc2NC(=O)c2c[nH]c(=O)cc2C(F)(F)F)C[C@H](C)N1C
Action: degrader
Time: 24 h
Quantity: remaining protein level
WDR5: WD repeat-containing protein 5 (WDR5, Homo sapiens, UniProt P61964)
WDR5/DCAF1: WDR5/DCAF1 (Homo sapiens, UniProt P61964+Q9Y4B6)
WDR5; Jess capillary immunoassay, item: WDR5 over vinculin; 331 nM; reference: DMSO: 63.6% and 54.1% and 59.6% and 93.2% and 72.5% and 90%
WDR5; Jess capillary immunoassay, item: WDR5 over vinculin; 4270 nM; reference: DMSO: 52.5% and 69.5% and 49% and 78.2% and 92% and 52.1%
WDR5/DCAF1; HiBiT luminescence; 1510 nM: 63.8% and 66.8% and 74.6%
WDR5/DCAF1; HiBiT luminescence; 2 nM: 110% and 95.9% and 107%

Series 2
Compound: COc1ccc(Cl)cc1NC(=O)Nc1cc(C)nc2ccccc12
Read-out: enzyme activity
Action: inhibitor
Concentration: 0.5 µM
Reference: control
Quantity: remaining activity
Cyclin-dependent kinase 4, with cyclin D3 (CDK4, Homo sapiens, UniProt P11802): 98.5%
Ribosomal protein S6 kinase alpha-5 (RPS6KA5, Homo sapiens, UniProt O75582): 88.4%
Testis-specific serine/threonine-protein kinase 2 (TSSK2, Homo sapiens, UniProt Q96PF2): 94%
Serine/threonine-protein kinase WNK3 (WNK3, Homo sapiens, UniProt Q9BYP7): 99.9%
Cyclin-dependent kinase 6, with cyclin D3 (CDK6, Homo sapiens, UniProt Q00534): 99%
Ephrin type-B receptor 1 (EPHB1, Homo sapiens, UniProt P54762): 102%
Homeodomain-interacting protein kinase 2 (HIPK2, Homo sapiens, UniProt Q9H2X6): 101%
Ephrin type-B receptor 4 (EPHB4, Homo sapiens, UniProt P54760): 93.7%
MAP kinase-activated protein kinase 3 (MAPKAPK3, Homo sapiens, UniProt Q16644): 101%
Homeodomain-interacting protein kinase 4 (HIPK4, Homo sapiens, UniProt Q8NE63): 109%
Dual specificity tyrosine-phosphorylation-regulated kinase 3 (DYRK3, Homo sapiens, UniProt O43781): 106%
3-phosphoinositide-dependent protein kinase 1 (PDPK1, Homo sapiens, UniProt O15530): 83.9%
Serine/threonine-protein kinase 16 (STK16, Homo sapiens, UniProt O75716): 105%
Tyrosine-protein kinase receptor UFO (AXL, Homo sapiens, UniProt P30530): 94%
Calcium/calmodulin-dependent protein kinase type II subunit beta (CAMK2B, Homo sapiens, UniProt Q13554): 103%
Cyclin-dependent kinase 1, with cyclin B (CDK1, Homo sapiens, UniProt P06493): 81.1%
Mitogen-activated protein kinase kinase kinase kinase 4 (MAP4K4, Homo sapiens, UniProt O95819): 84.7%
Phosphorylase b kinase gamma catalytic chain, skeletal muscle/heart isoform (PHKG1, Homo sapiens, UniProt Q16816): 102%
Serine/threonine-protein kinase 17A (STK17A, Homo sapiens, UniProt Q9UEE5): 98.2%
Tyrosine-protein kinase Srms (SRMS, Homo sapiens, UniProt Q9H3Y6): 97.6%
Tyrosine-protein kinase Blk (BLK, Homo sapiens, UniProt P51451): 99.8%

Series 3
SMILES: Cc1c[nH]c2nccc(Oc3c(F)cc(Nc4cc(Cl)nc(N)n4)cc3F)c12
Concentration: 0.1 µM
Quantity: remaining binding
Mitogen-activated protein kinase kinase kinase 10 (MAP3K10, Homo sapiens, UniProt Q02779); cell-free assay, competition with immobilised ligand: 100%
Receptor-interacting serine/threonine-protein kinase 1 (RIPK1, Homo sapiens, UniProt Q13546); cell-free assay, competition with immobilised ligand: 100%
Phosphatidylinositol 4-phosphate 3-kinase C2 domain-containing subunit beta (PIK3C2B, Homo sapiens, UniProt O00750); cell-free assay, competition with immobilised ligand: 88%
Serine/threonine-protein kinase PAK 2 (PAK2, Homo sapiens, UniProt Q13177); cell-free assay, competition with immobilised ligand: 99%
Mitogen-activated protein kinase kinase kinase 2 (MAP3K2, Homo sapiens, UniProt Q9Y2U5); cell-free assay, competition with immobilised ligand: 89%
Serine/threonine-protein kinase MARK1 (MARK1, Homo sapiens, UniProt Q9P0L2); cell-free assay, competition with immobilised ligand: 82%
Myosin light chain kinase 2, skeletal/cardiac muscle (MYLK2, Homo sapiens, UniProt Q9H1R3); cell-free assay, competition with immobilised ligand: 98%
Phosphatidylinositol 4,5-bisphosphate 3-kinase catalytic subunit alpha isoform (PIK3CA, Homo sapiens, UniProt P42336, I800L); cell-free assay, competition with immobilised ligand: 90%
Myosin light chain kinase family member 4 (MYLK4, Homo sapiens, UniProt Q86YV6); cell-free assay, competition with immobilised ligand: 100%
ALK tyrosine kinase receptor (ALK, Homo sapiens, UniProt Q9UM73); cell-free assay, competition with immobilised ligand: 95%
Serine/threonine-protein kinase SIK2 (SIK2, Homo sapiens, UniProt Q9H0K1); cell-free assay, competition with immobilised ligand: 100%
Mitogen-activated protein kinase kinase kinase 5 (MAP3K5, Homo sapiens, UniProt Q99683); cell-free assay, competition with immobilised ligand: 98%
Serine/threonine-protein kinase SIK1 (SIK1, Homo sapiens, UniProt P57059); competition binding: 98%
Serine/threonine-protein kinase WNK4 (WNK4, Homo sapiens, UniProt Q96J92); cell-free assay, competition with immobilised ligand: 100%
Cyclin-dependent kinase 14 (CDK14, Homo sapiens, UniProt O94921); cell-free assay, competition with immobilised ligand: 100%
TRAF2 and NCK-interacting protein kinase (TNIK, Homo sapiens, UniProt Q9UKE5); cell-free assay, competition with immobilised ligand: 100%
Maternal embryonic leucine zipper kinase (MELK, Homo sapiens, UniProt Q14680); cell-free assay, competition with immobilised ligand: 57%
Calcium/calmodulin-dependent protein kinase type 1 (CAMK1, Homo sapiens, UniProt Q14012); cell-free assay, competition with immobilised ligand: 92%
Testis-specific serine/threonine-protein kinase 3 (TSSK3, Homo sapiens, UniProt Q96PN8); cell-free assay, competition with immobilised ligand: 100%
Calcium/calmodulin-dependent protein kinase type 1G (CAMK1G, Homo sapiens, UniProt Q96NX5); cell-free assay, competition with immobilised ligand: 97%
Serine/threonine-protein kinase Nek9 (NEK9, Homo sapiens, UniProt Q8TD19); cell-free assay, competition with immobilised ligand: 96%
Receptor-type tyrosine-protein kinase FLT3 (FLT3, Homo sapiens, UniProt P36888, R834Q); cell-free assay, competition with immobilised ligand: 85%

Series 4
Target: Calcium/calmodulin-dependent protein kinase type II subunit alpha (CAMK2A, Homo sapiens, UniProt Q9UQM7)
Read-out: enzyme activity
Action: inhibitor
Concentration: 10 µM
Quantity: inhibition
COc1ccc([C@@H]2OC[C@H]3[C@@H]2CO[C@@H]3c2ccc(O[C@@H]3O[C@H](CO)[C@@H](O)[C@H](O)[C@H]3O)c(OC)c2)cc1OC: 16%
CCC(=O)O[C@]1(C(=O)CCl)[C@@H](C)C[C@H]2[C@@H]3C[C@H](F)C4=CC(=O)C=C[C@]4(C)[C@@]3(F)[C@@H](O)C[C@@]21C: -6%
O=C(/C=C/c1ccc(O)c(O)c1)O[C@@H]1C[C@](O)(C(=O)O)C[C@@H](O)[C@H]1O: 5%
COc1cc(C(C)C)c(Oc2cnc(N)nc2N)cc1S(N)(=O)=O: -2%
COc1cc(O)cc(/C=C/c2ccccc2)c1: -16%
CC(C)=CCc1c(O)ccc(C(=O)/C=C/c2ccc(O)cc2)c1O: 46%
CC(=O)N1C[C@H](O)C[C@H]1C(=O)O: 13%
CC[C@H]1OC(=O)[C@H](C)[C@@H](O[C@H]2C[C@@](C)(OC)[C@@H](O)[C@H](C)O2)[C@H](C)[C@@H](O[C@@H]2O[C@H](C)C[C@H](N(C)C)[C@H]2O)[C@](C)(O)C[C@@H](C)/C(=N\OCOCCOC)[C@H](C)[C@@H](O)[C@]1(C)O: -1%
COc1cc(NCc2ccc3nc(N)nc(N)c3c2C)cc(OC)c1OC: -10%
CCCN[C@@H]1CCc2nc(N)sc2C1: 7%
C[N+](C)(C)CCCC[C@H](N)C(=O)O: -20%
O=C(N[C@H](COC(=O)[C@H](Cc1ccccc1)NC(=O)c1ccccc1)Cc1ccccc1)c1ccccc1: -8%
CCCCC/C=C\C/C=C\C/C=C\CCCCC(=O)O: -2%
CCc1nc(N)nc(N)c1-c1ccc(Cl)cc1: -4%
C/C=C(/C)C(=O)O[C@H]1[C@@H](OC(=O)CC(C)C)c2c(ccc3ccc(=O)oc23)OC1(C)C: -23%
COc1c2ccoc2c(OCC=C(C)C)c2oc(=O)ccc12: -4%

Repeated from above (series 3):
Mitogen-activated protein kinase kinase kinase 5 (MAP3K5, Homo sapiens, UniProt Q99683); cell-free assay, competition with immobilised ligand: 98%
Testis-specific serine/threonine-protein kinase 3 (TSSK3, Homo sapiens, UniProt Q96PN8); cell-free assay, competition with immobilised ligand: 100%
Serine/threonine-protein kinase WNK4 (WNK4, Homo sapiens, UniProt Q96J92); cell-free assay, competition with immobilised ligand: 100%
Serine/threonine-protein kinase Nek9 (NEK9, Homo sapiens, UniProt Q8TD19); cell-free assay, competition with immobilised ligand: 96%
TRAF2 and NCK-interacting protein kinase (TNIK, Homo sapiens, UniProt Q9UKE5); cell-free assay, competition with immobilised ligand: 100%
Calcium/calmodulin-dependent protein kinase type 1 (CAMK1, Homo sapiens, UniProt Q14012); cell-free assay, competition with immobilised ligand: 92%
Myosin light chain kinase family member 4 (MYLK4, Homo sapiens, UniProt Q86YV6); cell-free assay, competition with immobilised ligand: 100%
Serine/threonine-protein kinase SIK1 (SIK1, Homo sapiens, UniProt P57059); competition binding: 98%
Mitogen-activated protein kinase kinase kinase 10 (MAP3K10, Homo sapiens, UniProt Q02779); cell-free assay, competition with immobilised ligand: 100%
Receptor-interacting serine/threonine-protein kinase 1 (RIPK1, Homo sapiens, UniProt Q13546); cell-free assay, competition with immobilised ligand: 100%
Mitogen-activated protein kinase kinase kinase 2 (MAP3K2, Homo sapiens, UniProt Q9Y2U5); cell-free assay, competition with immobilised ligand: 89%
